Measured values collected from several papers.
Lines come from different studies, so protocols differ.
Mode: inhibitor
HDAC3: Histone deacetylase 3 (HDAC3, Homo sapiens, UniProt O15379)
Chain of UniProt O15379 (whole entry, looked up): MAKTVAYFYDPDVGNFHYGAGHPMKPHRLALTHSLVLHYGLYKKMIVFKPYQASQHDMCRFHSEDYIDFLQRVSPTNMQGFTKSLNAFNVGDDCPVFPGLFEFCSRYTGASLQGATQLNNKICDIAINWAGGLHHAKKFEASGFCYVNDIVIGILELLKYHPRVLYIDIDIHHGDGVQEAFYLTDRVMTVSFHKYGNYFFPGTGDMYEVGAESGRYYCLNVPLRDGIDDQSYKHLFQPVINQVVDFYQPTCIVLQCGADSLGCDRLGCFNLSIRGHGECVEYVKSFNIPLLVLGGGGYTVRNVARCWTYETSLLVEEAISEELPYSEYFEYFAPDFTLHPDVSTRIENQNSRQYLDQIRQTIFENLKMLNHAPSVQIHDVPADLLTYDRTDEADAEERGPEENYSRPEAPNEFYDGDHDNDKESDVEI

| Compound | target | effect on | method | notes | IC50 [nM] |
| --- | --- | --- | --- | --- | --- |
| O=C(CCCCCCN(Cc1ccccc1)Cc1ccccc1)NO | HDAC3 | enzyme activity | fluorescence | – | 1100 |
| Nc1ccc(-c2ccncc2)cc1NC(=O)N1CCCCC1 | HDAC3 | enzyme activity | – | – | 10100 |
| CCC(=O)CCCCC[C@@H]1NC(=O)[C@@H](C)n2nncc2[C@@H](CC(C)C)NC(=O)[C@H](Cc2c[nH]c3ccccc23)NC1=O | Histone deacetylase 3, with NCoR2 (HDAC3, Homo sapiens, UniProt O15379) | enzyme activity | – | complex with NCoR2 | 119 |
| O=C(C=Cc1ccc2c(c1)C(=O)N(Cc1ccccc1)CC2)NO | HDAC3 | enzyme activity | – | – | 200 |
| O=C(O)c1ccc(Cn2sc3ccccc3c2=O)cc1 | HDAC3 | enzyme activity | – | – | 5300 |
| O=C(CCCCCCNC(=O)c1cc(C(=O)c2ccccc2)cn1Cc1ccc(F)cc1)NO | HDAC3 | enzyme activity | – | – | 1150 |
| COCCn1cc2c(n1)CN(C(=O)Nc1nc(-c3ccc(F)cc3F)ccc1N)C2 | HDAC3 | deacetylase activity | – | co-expressed with NCOR2 | 27600 |
| O=C(CCCCCCNCc1ccccc1)NO | HDAC3 | enzyme activity | fluorescence | – | 430 |
| O=C(CCCCCCC(=O)Nc1ccc(-[c-]2cccc2)cc1)NO.[Fe+2].c1cc[cH-]c1 | HDAC3 | enzyme activity | fluorescence | – | 9 |
| O=C(CCCCCCN(Cc1ccc([N+](=O)[O-])cc1)Cc1ccc([N+](=O)[O-])cc1)NO | HDAC3 | enzyme activity | fluorescence | – | 1400 |
| O=C(CCCC(=O)Nc1ccc(-[c-]2cccc2)cc1)NO.[Fe+2].c1cc[cH-]c1 | HDAC3 | enzyme activity | fluorescence | – | 3170 |
| O=c1c2ccccc2sn1-c1ccccc1 | HDAC3 | enzyme activity | – | – | 2720 |
| COc1ccc(CNCCCCCCC(=O)NO)cc1OC | HDAC3 | enzyme activity | fluorescence | – | 180 |
| O=c1c2ccccc2sn1Cc1ccccc1 | HDAC3 | enzyme activity | – | – | 5010 |
| O=C(CCCCCCN(Cc1ccc(F)cc1)Cc1ccc(F)cc1)NO | HDAC3 | enzyme activity | fluorescence | – | 3600 |
| Nc1ccc(-c2cccs2)cc1N | HDAC3 | enzyme activity | – | – | > 33300 |
| Cc1ncc2c(n1)CN(C(=O)Nc1nc(-c3cccs3)ccc1N)C2 | HDAC3 | deacetylase activity | – | co-expressed with NCOR2 | > 30000 |
| CN1CCN(C(=O)N(CCCCCCC(=O)NO)c2ccc(-c3ccc4cnn(C)c4c3)cc2)CC1 | HDAC3 | enzyme activity | fluorescence | – | 0.61 |
| Nc1ccc(-c2ccccc2)cc1NC(=O)N1CCCCC1 | HDAC3 | enzyme activity | – | – | 1960 |
| COc1ccc(CN(CCCCCCC(=O)NO)Cc2ccc(OC)c(OC)c2)cc1OC | HDAC3 | enzyme activity | fluorescence | – | 290 |

Excerpt of the above:
| Compound | target | effect on | method | notes | IC50 [nM] |
| --- | --- | --- | --- | --- | --- |
| O=C(CCCCCCC(=O)Nc1ccc(-[c-]2cccc2)cc1)NO.[Fe+2].c1cc[cH-]c1 | HDAC3 | enzyme activity | fluorescence | – | 9 |
| O=C(CCCCCCN(Cc1ccc([N+](=O)[O-])cc1)Cc1ccc([N+](=O)[O-])cc1)NO | HDAC3 | enzyme activity | fluorescence | – | 1400 |
